Results collected from several papers.
Parts stem from different laboratories: compare values within a part only.

Series 1 — technique: protein binding microarray; molecule type: double-stranded DNA, one strand shown; sample: in vitro; concentration: not given; reference: not given; direction: higher = stronger binding
Target: Histone acetyltransferase KAT6A, winged helix 2, GST fusion (KAT6A, Homo sapiens, UniProt Q92794, residues 85-181)
Setting: 8-mer, flanks averaged, mean of 2 arrays, mostly near background
Target sequence (chain): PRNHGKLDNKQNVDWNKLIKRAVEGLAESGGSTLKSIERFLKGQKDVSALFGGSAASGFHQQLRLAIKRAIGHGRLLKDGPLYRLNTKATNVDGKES
Strand | E-score
AAGTGCCT | -0.0902
CGTCTAAC | -0.0819
TACACCTA | -0.107
GTAATCTA | 0.0456
GTCCAAGA | -0.13
ACTCGCGA | 0.135
GAGATAGA | 0.0323
CAGGTGAG | 0.0748
CTTTACGC | -0.0483
ATAGCGAT | -0.0245
ACGAATGC | -0.0802
GTCGTCGA | -0.107
ATAAGGAT | -0.0588
GGGTACGA | 0.022
TACGCTGA | -0.00781
CCGGAAGG | 0.264
AAACTTTG | 0.0778
AGGATCAG | -0.181
CTTCGCTA | 0.0647
ACCGCCGA | 0.119
AAATTCCG | -0.00387
AGACAGCG | 0.0603
AATTCAAG | -0.0233
CATAGTCA | 0.00894
ACTAGGTC | 0.0526

Series 2 — technique: RNA Bind-n-Seq; molecule type: RNA; sample: in vitro; concentration: 365 nM; reference: no-protein control; direction: higher = stronger binding
Target: RNA binding protein fox-1 homolog 2, RRM domain, GST-SBP tag (RBFOX2, Homo sapiens, UniProt O43251-10, residues 100-194)
Setting: natural RNA segment, single round, ends assumed
All sequences stand within: GGGAGUUCUACAGUCCGACGAUC … UGGAAUUCUCGGGUGCCAA
Target sequence (chain): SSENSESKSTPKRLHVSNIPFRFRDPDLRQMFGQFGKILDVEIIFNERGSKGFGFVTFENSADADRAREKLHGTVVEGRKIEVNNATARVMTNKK
Strand | RBNS enrichment (R)
AGCCCUGGGGUGGUCAGAGAGGCCCAUGCCACCCGUCCCCACUUGUGACAUCCCCUUCGACCACCAGCUGACCAUGCAUGCCACGUGGCCAGCUGAGUCCAGGACCCUCU | 4.3
AGUGUUUGAGCCUACAGUGGGAUACAUAGGGUCAAAUUGAGAAUAAUAAACUGAGUCAUUCUCCUGGGUCAAGUGAGUAUGGAGGCUGAGAGGCAGCAUAUGGCACUUCA | 1.16
CAUAACUGAGCUCAAGCUCUUGCCAAACACCAACAAGCAAGAUGGUUGCAACCUGGCAACAUUGAAUCCACCACCCUUGGGCUCCCUCUGGAAGCCCCAGCACCGGGGGG | 0.565
AAGGGUUAAUCCCUCUUUGUUCCAAGCAGAAGCAUUCUGGCAUCCCAGUGAAGAGCUCAGGCCCUCAGGAAGUGUCUGCUGAAUGGAAUGGCCCAGCAUUAGCCCAGUAU | 0.344
AUGUUAUCUUUCUUGCAAGAGUAAUUUAAGCACAUGGGAAAGAUUCUAGACUUUUUGUUUCUUGCAACAACAGUGCCCUCUGCUGCUAGAAACCUUUUUCUACUUACUAU | 0.347
CUUGCACUUGUACAUAACUAUACUGUAGUGUCCAGAAUGUUCAGACAUUCAGGGUGUACAUAAACAGAAGAGUAUCAUAAUGUAUUUUUAUUAAACACUAACAUCUGAGU | 0.541
UGUAUGAUGUACAUUUUAGUUCUUAACUUUUUUUUAUGGUUUCUAAUAUGUAUGACCAAUGUAGCCAUUGCUUUAAAAUGUACCGUGUAAAUAUAAACACAUCCUAUCAG | 6.12
GAAGUAUUAUUAAUAUUGCUACAGUGUUAUUAUGAUAUUGUUACUAUUAACCAUGUUGGGUGGAUAGCGGCAGAGCAAAAAGUUUGAAUGGGCUAGAGGUGGGAAGCUUG | 0.692

Series 3 — technique: protein-binding microarray; molecule type: double-stranded DNA, one strand shown; sample: in vitro; concentration: 2540 nM top; setting: 60-bp whole probe; with: salmon DNA 0.4 mg/ml; reference: random background probes; direction: higher = stronger binding; all sequences stand within: GCCTAGCAC … GTCTTGATTCGCTTGACGCTGCTG
Target: Interferon regulatory factor 3, full length, phosphomimetic (IRF3, Homo sapiens, UniProt Q14653, residues 1-427, S386D/S396D/S398D/S402D/T404D/S405D)
Target sequence (chain): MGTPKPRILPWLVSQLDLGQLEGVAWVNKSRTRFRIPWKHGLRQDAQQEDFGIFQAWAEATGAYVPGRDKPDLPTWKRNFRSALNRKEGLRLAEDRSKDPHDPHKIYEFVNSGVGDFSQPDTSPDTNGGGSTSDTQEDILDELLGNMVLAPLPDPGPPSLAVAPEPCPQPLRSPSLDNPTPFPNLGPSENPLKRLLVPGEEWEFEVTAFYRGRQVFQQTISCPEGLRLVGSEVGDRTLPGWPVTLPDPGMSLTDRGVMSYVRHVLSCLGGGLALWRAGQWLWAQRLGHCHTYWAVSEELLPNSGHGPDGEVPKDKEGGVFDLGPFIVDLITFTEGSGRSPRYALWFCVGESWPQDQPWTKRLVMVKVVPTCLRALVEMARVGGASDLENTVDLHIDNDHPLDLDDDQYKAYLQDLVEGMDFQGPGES
Strand | fitted relative affinity [z-score]
GTAGGACTGGGGTTTCGGTTAGTGCTA | 2.26
TTAGGAGTGGACTTTCGGTTAGTGCTA | 1.2
CTTCTTTTTTTTCTTTAAAAGTGCTAG | 3.66
TTAGGACTGGGACTGGGTCAGTGCTAG | -1
GACGATTCCAGTTTCGAGACGTGCTAG | 3.26
ATTTTTTTTAGTGGATGAAAGTGCTAG | 0.743
GACGGTTTCGGGTATCGTGACGTGCTA | 4.01
TCACATTTTTTTTGCAAACTGTGCTAG | 0.453
AAATCATTTTCTCTGTTCTAGTGCTAG | 2.16
TTAGGACTGCTTATCCGTTAGTGCTAG | -0.224
TTAGGTCTGCTTCTCCTTTAGTGCTAG | 0.0121
GACGATATCGGGACTGGAGATGTGCTA | 0.00755
TCATTATTTACTCTCTAACTGTGCTAG | 0.695
TCTGTTTTTGCTTTCCTTCTGTGCTAG | 3.99
TTAGGACTTGGACTGGGTTAGTGCTAG | -0.995
CTCTACCTCGTCATAGTAACGTGCTAG | 0.16
TCAGCCCTCGGTTTACAACTGTGCTAG | -0.2
TTAGGGCTCCTTATCCTTTAGTGCTAG | 1.5
TTGTTTTACAATTTGCTTTAGTGCTAG | 1.56

Series 4 — technique: universal PBM; molecule type: double-stranded DNA, one strand shown; sample: in vitro; concentration: 600 nM; direction: higher = stronger binding
Target: Sal-like protein 4, full length isoform A (SALL4, Homo sapiens, UniProt Q9UJQ4, residues 1-1053)
Sequence of UniProt Q9UJQ4 (whole entry, looked up): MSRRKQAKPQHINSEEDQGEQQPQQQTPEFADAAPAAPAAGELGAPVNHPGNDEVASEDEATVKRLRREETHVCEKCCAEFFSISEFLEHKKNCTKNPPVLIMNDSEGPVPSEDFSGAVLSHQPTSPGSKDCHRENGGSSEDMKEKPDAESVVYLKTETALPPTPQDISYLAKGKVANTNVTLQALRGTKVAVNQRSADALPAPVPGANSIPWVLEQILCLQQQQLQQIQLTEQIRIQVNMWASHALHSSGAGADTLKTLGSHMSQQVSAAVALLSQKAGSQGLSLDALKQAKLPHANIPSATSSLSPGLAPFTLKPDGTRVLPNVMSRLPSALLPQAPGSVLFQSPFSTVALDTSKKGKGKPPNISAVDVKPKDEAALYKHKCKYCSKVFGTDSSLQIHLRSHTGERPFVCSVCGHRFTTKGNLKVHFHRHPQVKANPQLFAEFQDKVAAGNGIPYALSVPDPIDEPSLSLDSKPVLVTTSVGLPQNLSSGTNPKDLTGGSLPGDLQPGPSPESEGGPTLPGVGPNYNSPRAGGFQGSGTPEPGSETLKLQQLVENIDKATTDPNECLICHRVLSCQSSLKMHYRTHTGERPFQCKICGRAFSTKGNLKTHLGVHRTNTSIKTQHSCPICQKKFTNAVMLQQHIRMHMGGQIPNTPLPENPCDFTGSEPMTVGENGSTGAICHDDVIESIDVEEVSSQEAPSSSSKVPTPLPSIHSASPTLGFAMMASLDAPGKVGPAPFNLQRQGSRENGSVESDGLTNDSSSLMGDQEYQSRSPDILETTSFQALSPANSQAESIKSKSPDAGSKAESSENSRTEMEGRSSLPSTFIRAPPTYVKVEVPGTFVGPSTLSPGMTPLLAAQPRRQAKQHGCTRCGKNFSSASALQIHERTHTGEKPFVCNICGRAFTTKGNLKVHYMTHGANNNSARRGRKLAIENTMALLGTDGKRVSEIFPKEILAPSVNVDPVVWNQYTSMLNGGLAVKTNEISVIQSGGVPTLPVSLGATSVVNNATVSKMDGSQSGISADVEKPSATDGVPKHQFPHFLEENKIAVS
Setting: 8-mer, flanks averaged, mean of replicates
Strand | E-score
CCAGGGGG | -0.351
ACCGTTCT | -0.0799
CATACCTC | 0.145
CAGAGGAC | -0.0517
CAGAATGG | -0.0225
ACAACCCG | -0.13
CAGAGCGG | -0.132
AACTGCAC | 0.0463
AGTAGTGC | -0.158
GTATCCTA | 0.00524
CATGGGCA | -0.242
ACATCATA | 0.302
ATTTTCGA | 0.299
GACCTAGC | -0.0786
CGGATAAC | -0.034
TCAAAGAA | 0.163
AAGAATTC | -0.0059
GCCGCCGA | -0.292
AGTGCATC | -0.00534
GAAAACCC | -0.052
GAGCTTCA | -0.0342
GGTCGGAC | -0.31
